Published values collected from several papers.
Each numbered part is a random draw from the data of one study; scales do not carry over between parts. Changes are numbered by the printed parent chain.

Set 1 — technique: protein-binding microarray; molecule type: double-stranded DNA, one strand shown; sample: in vitro; concentration: 2200 nM top; setting: 60-bp whole probe; with: salmon DNA 0.4 mg/ml; reference: random background probes; direction: higher = stronger binding; endpoint: fitted relative affinity; all sequences stand within: GCCTAGCAC … GTCTTGATTCGCTTGACGCTGCTG
Target: Interferon regulatory factor 7, full length, phosphomimetic (IRF7, Homo sapiens, UniProt Q92985, residues 1-503, S471D/S472D/S475D/S476D/S477D/S483D/S484D/S487D)
Sequence of UniProt Q92985 (whole entry, unmodified, looked up): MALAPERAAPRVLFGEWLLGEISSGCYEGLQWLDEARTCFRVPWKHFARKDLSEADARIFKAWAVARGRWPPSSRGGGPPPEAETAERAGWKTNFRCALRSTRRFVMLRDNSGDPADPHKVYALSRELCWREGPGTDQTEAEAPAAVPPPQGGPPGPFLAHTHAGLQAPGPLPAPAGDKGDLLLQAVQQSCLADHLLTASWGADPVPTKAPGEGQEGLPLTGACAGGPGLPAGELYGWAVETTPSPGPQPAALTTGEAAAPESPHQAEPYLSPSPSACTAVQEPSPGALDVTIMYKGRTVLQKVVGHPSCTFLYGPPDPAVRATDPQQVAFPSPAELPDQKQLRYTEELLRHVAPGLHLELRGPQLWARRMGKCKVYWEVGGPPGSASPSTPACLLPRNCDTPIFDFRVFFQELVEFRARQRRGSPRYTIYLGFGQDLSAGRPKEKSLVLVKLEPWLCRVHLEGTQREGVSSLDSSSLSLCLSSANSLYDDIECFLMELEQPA
TTAGGTATCGGGACTGGATTAGTGCTA: -0.199 z-score
GACGATCTCAGTATCGAGATGTGCTAG: 0.157 z-score
GACGATTTCAGTATCGCGACGTGCTAG: 0.998 z-score
TTAGGTACCGGTTTCGGTTAGTGCTAG: 6.4 z-score
GTGGGACCCATGAACACTCAGTGCTAG: -0.446 z-score
CTCTGTCCCTGTTTCTACTGGTGCTAG: 2.72 z-score
GTCGGTCTCGGTTTCGGGACGTGCTAG: 4.46 z-score
GACGGACTGGGGCTCGGGACGTGCTAG: -0.959 z-score
TTAGATATCAGTATCGATGAGTGCTAG: -0.155 z-score
TCAAATTTCTTTCTAATACTGTGCTAG: 0.627 z-score
TCACCTCTCTGTCCCCCTTTGTGCTAG: 1.98 z-score
TTAGTTTTCAGACTGGATTAGTGCTAG: 0.884 z-score
TTTGATCTCAGTCTCGATTAGTGCTAG: 0.799 z-score
GACGGTCTCCTACTGCGGACGTGCTAG: 0.223 z-score
TTAGATATTGGGACTGGATTAGTGCTA: -0.473 z-score
TTAGGTCTCCTTCTCCTTTTGTGCTAG: 1.31 z-score
TTAGATCTCAGTCTCGGTTAGTGCTAG: 0.758 z-score
TCAGATTTTCCCATGAGACTGTGCTAG: 1.07 z-score
TCACCATCCTGTATGGAACTGTGCTAG: 1.17 z-score

Set 2 — technique: Spec-seq; molecule type: double-stranded DNA, one strand shown; sample: in vitro; concentration: not given; setting: whole probe, mean of replicates; reference: not given; direction: lower = stronger binding; endpoint: relative binding energy; all sequences stand within: GAGTCGTCTCGTCAGCAC … CCGTAGAGCACTCAGGTC
Target: POU, POU domain (Salpingoeca helianthica)
Construct (chain): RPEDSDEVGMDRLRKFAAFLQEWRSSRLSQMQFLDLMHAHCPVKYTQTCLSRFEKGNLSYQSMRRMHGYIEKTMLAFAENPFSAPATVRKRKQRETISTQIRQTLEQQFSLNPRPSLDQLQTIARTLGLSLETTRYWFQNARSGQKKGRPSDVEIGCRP
CTAGTAAT: 0.289 ln ratio
ATGCACAA: 1.12 ln ratio
ATCGTCAT: 0.911 ln ratio
TGCTTAAT: 0.42 ln ratio
ATGCGAGT: 1.42 ln ratio
TGACTAAT: 0.553 ln ratio
AGTCTAAT: 0.793 ln ratio
ACTCTAAT: 0.718 ln ratio
ATGCCCAG: 1.48 ln ratio
ATGCCGCG: 1.65 ln ratio
GGCATAAT: 0.76 ln ratio
ATGCCTGA: 1.8 ln ratio
ATTCAGAT: 1.23 ln ratio
ACAATAAT: 0.208 ln ratio
ATGTCAAT: 1.24 ln ratio
ATGGTCAT: 1.11 ln ratio
ATGCATTC: 1.14 ln ratio
ATGATCAT: 1.31 ln ratio
ATCGCTAT: 1.01 ln ratio
TCGGTAAT: 0.523 ln ratio
TTATTAAT: -0.896 ln ratio

Set 3 — target: CCNA1, cyclin fold, Cln2 fusion (human); technique: yeast growth competition, sequencing; sample: yeast; setting: weak parent motif; reference: not given; direction: higher = stronger binding; endpoint: normalised enrichment score
Starting sequence: CDC6 docking peptide (human); TLKGRRLVFDNQL; partner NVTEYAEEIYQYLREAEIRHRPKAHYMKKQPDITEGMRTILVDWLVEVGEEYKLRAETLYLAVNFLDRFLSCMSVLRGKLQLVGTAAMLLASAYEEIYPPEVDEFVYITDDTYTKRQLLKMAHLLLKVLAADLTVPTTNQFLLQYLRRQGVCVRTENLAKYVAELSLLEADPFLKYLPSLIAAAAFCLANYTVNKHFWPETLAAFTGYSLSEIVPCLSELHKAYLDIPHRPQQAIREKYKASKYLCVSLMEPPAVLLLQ
TLKRRRLVFDNQL [G4R]: 0.0178
TLKPRRLVFDNQL [G4P]: 0.351
TLKGRRLVFQNQL [D10Q]: 0.221
TLKGRRLVVDNQL [F9V]: -0.176
TLKGRRVVFDNQL [L7V]: 0.253
TLKGRRLVFDFQL [N11F]: 0.409
TLKGRYLVFDNQL [R6Y]: 0.505
TEKGRRLVFDNQL [L2E]: -0.256
TLTGRRLVFDNQL [K3T]: 0.417
TLKGRRLVFDNAL [Q12A]: 0.235
TLLGRRLVFDNQL [K3L]: 0.381
MLKGRRLVFDNQL [T1M]: 0.172
TLKGRVLVFDNQL [R6V]: 0.441
TLKGRRQVFDNQL [L7Q]: 0.294
TLKGRRLVFDNQH [L13H]: -0.121
TLKGRRLVFDWQL [N11W]: 0.727
TLKGRRLVFDEQL [N11E]: -0.0156
TLKGRRIVFDNQL [L7I]: 0.655
TLKGRREVFDNQL [L7E]: 0.465
TLKGCRLVFDNQL [R5C]: -0.143
TLKGYRLVFDNQL [R5Y]: -0.0685
TLKGRRLVNDNQL [F9N]: 0.165
TLKGRRLVFDNQI [L13I]: 0.102
TLKGRRLGFDNQL [V8G]: 0.201
TLKARRLVFDNQL [G4A]: 0.236

Set 4 — target: DBP, bZIP domain (human); technique: DHFR protein complementation; sample: yeast; reference: wild-type JUN-FOS pair; direction: higher = stronger binding; endpoint: binding fitness
Setting: single substitutions, most at no-binding floor
Starting sequence: JUN, bZIP domain (human); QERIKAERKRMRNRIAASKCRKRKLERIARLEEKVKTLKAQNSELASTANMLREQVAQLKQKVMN; partner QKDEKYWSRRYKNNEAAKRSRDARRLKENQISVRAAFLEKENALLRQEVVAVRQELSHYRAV
S47T: -1.4 natural log
R30C: -1.49 natural log
Q55L: -1.37 natural log
L45M: -1.42 natural log
L52Q: -1.51 natural log
L31Y: -1.54 natural log
A57V: -1.54 natural log
A29P: -1.52 natural log
V35Q: -1.52 natural log
E32P: -1.5 natural log
T37A: -1.36 natural log
R53D: -1.45 natural log
V56S: -1.44 natural log
V56E: -1.52 natural log
A49E: -1.54 natural log
A40F: -1.54 natural log
K39W: -1.46 natural log
S43L: -1.51 natural log
M51R: -1.38 natural log
Q41G: -1.43 natural log
E44A: -1.49 natural log
I28W: -1.41 natural log
A46N: -1.46 natural log
R30W: -1.5 natural log
R53W: -1.57 natural log

Set 5 — technique: DHFR PCA, deep sequencing; sample: yeast; with: (+)-ABA 200 µM; reference: wild-type fitted maximum; direction: higher = stronger binding; endpoint: relative binding score
Target: ABI1, truncated, D143A, DHFR fusion (Arabidopsis thaliana)
Setting: methotrexate growth selection, single substitutions
Starting sequence: PYL1, truncated, DHFR fusion (Arabidopsis thaliana); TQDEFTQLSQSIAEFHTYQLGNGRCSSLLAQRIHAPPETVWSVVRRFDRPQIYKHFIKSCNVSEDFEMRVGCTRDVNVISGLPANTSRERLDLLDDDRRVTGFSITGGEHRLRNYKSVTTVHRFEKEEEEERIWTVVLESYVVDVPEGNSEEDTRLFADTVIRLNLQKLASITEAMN
A30K: 105%
I12D: 35.1%
D159L: 0.386%
S9V: 85%
N61S: 106%
K168Y: 70.7%
W134Y: 104%
E125W: 98.9%
E128G: 123%
D144H: 57.4%

Set 6 — technique: protein binding microarray; molecule type: double-stranded DNA, one strand shown; sample: in vitro; concentration: not given; reference: not given; direction: higher = stronger binding; endpoint: E-score
Target: Histone acetyltransferase KAT6A, winged helix 1, GST fusion (KAT6A, Homo sapiens, UniProt Q92794, residues 1-85)
Setting: 8-mer, flanks averaged, mean of 2 arrays, mostly near background
Residues (chain): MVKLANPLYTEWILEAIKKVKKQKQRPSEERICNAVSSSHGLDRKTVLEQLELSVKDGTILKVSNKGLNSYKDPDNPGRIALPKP
AATTAGAT: -0.0754
GCGTTGCA: 0.102
TAGAAACA: -0.119
TCGCGAAA: 0.141
AATGTGAG: -0.223
AGGGCTAT: -0.154
ATACTGCC: 0.0561
GGAACTCA: -0.113
ATTACGCG: 0.271
AAGGGATG: -0.16
ACGAACCC: 0.194
CGGAACTC: 0.0199
GACGAGTC: -0.173
ATCCGGCC: 0.24
CACAGGGG: -0.155
CCCAAGAA: -0.179
GCGGCCGC: 0.485
ATTGAGTG: -0.0913
CAGAAATA: -0.152
AGCTGACG: 0.037
AAATCTTC: -0.0125
GGTCTGGA: -0.0264
AAGAAAAA: -0.223
AACAAAAA: -0.158
GGAACCGA: -0.0192

Mixed results
PhoQ, residues 284 288 289 292 302 303 NLGVHL
fold induction (PhoP, residues 12 14 15 18 19 FWNTL (Escherichia coli, UniProt P23836); Sort-seq, item: YFP reporter; E. coli; PhoQ-PhoP variant library, with: 10 µM Mg2+; reference: high Mg2+ state, higher = stronger signaling): 4.66

A few entries again (mixed results):
PhoQ, residues 284 288 289 292 302 303 NLGVHL
fold induction (PhoP, residues 12 14 15 18 19 FWNTL (Escherichia coli, UniProt P23836); Sort-seq, item: YFP reporter; E. coli; PhoQ-PhoP variant library, with: 10 µM Mg2+; reference: high Mg2+ state, higher = stronger signaling): 4.66
